Assay results of several laboratories.
Parts stem from different laboratories: compare values within a part only.

Set 1
Target: RNA binding protein fox-1 homolog 2, RRM domain, GST-SBP tag (RBFOX2, Homo sapiens, UniProt O43251-10, residues 100-194)
Technique: RNA Bind-n-Seq
Form: RNA
Sample: in vitro
Tested at: 365 nM
Setting: natural RNA segment, single round, ends assumed
Baseline: no-protein control
Reading: higher = stronger binding
Endpoint: RBNS enrichment (R)
Shared flanks, not repeated: GGGAGUUCUACAGUCCGACGAUC … UGGAAUUCUCGGGUGCCAA
Residues (chain): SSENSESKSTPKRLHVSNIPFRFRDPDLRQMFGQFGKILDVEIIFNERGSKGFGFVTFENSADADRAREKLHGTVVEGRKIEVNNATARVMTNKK
CUGUGGCUGUGAGGUCUCAUAUAGCAUAUUUAUAAAUGUUACUCAGGUUUAAAGUAUUUAAAAUAUAGUUACCUAAUUGUAAAUAGGCUGUUAACCAAAAGAGCUUCCCC: 0.309
UUCCAUCUUUGUAUACACCUGCAUGCAGGAAGACCUGGAUAUGGAUGAGCCCUGAGGAACACAGGGAGGGCCUUGAAGAACAAUCUACAGAUGCACAAUCCUUUCCAACC: 4.77
UUAAAAUAAAAUUUACUUCCGACGUUUUAAUUACAAAUGUUUGCCACAUUAACUUCUCUGAUGCCUUAAAAGUGGACUUCUUUGAAGAACUUCUGUGCUAUUUUAUCACA: 0.724
CACCAACAACAAACGUGUUUGAAUUCACCUUACCAAUAUUAAUCCCAGCGUGUGUAAAACAGAACAGUAACUCUAUGUGACCCCAGAUAACAUUUUGUAACAUUGUGCUU: 1.53
CCACUAUUAGGUUUUUUUUCUUUUCCUCUGUGGGGCUAAGACACUUGAUUAAACAGUUUUUCUUGUUGCACAGUCCUAAUUUCAUAAGGUCAAGGAGACACUCAGGCAUU: 0.683
ACUUGUCACACCUUUUGUUUCAUUCUGAGUCUUUAGUUUUAGUCAUGGGCUUUCUUCACCUGCUCUAGGUGCAAAGGCAUGUUGGGAAAGAGAUGGAUGUUGGGGAGGAA: 1.21
UCAGGAGAGUGAGGCACAGUGUCCAUCAUGCCAUUUAAUCUUGUGCCUGCCCUUUCCAGCCUCUUCAAAAGAUGCAUCCAAACAACAGGUCUGCAUUUGAUGUAAUGCCU: 0.477
CAGUUGACCAUCUAGGGCAUAUUAAACUGUGAAGCUUUCCCAGUGCACUUUGAAUAUGGAAGAGAAUUUGAGCAGACCCCCGCGGGACCAAGACUGAAAGAGGCAAGGUC: 1.71
GGUCAGCACAGUGCCUUUUCCUCUCCUGCUCUGAGCCAGGGUGGGGCAUUCCCUCUAGAUUCAGGUUUGGGCAGGGGUCCUAUAGUCCCUGCCAUGGGGCUGCUUCCCUG: 0.311
CUAAUCAUUCCACAUUUAUUGAGCUCCACCUGUGUGUAUGUGUACCCAAGCACACAUGUGUGAAGGGCUAUAGCCAAAGUAUUUUUACUAGCCUGUAUGAAAUCACUAGU: 0.886
ACAACAAAAGCCGGCAGGCAUCUUUAAGGGCUAUGCCUAGGGAGACUACUAACAUGGAGAGAAUGCCGUGUAUACCUCACGUACUGUGUGCUUUAUAUUUGUAUAUACAU: 0.64
UAAUUUUUGAAGAAUAUCACAAAGUUGCUAUUAUGGUAAACUAGUUUCACACUUCAGCAAACAUAAGGAGGACAGCUUUGUUAAUAGCUAAAAAGUACAAAUUAAAAGAU: 0.303

Set 2
Target: Sal-like protein 4, full length isoform A (SALL4, Homo sapiens, UniProt Q9UJQ4, residues 1-1053)
UniProt Q9UJQ4, sequence (whole entry, looked up): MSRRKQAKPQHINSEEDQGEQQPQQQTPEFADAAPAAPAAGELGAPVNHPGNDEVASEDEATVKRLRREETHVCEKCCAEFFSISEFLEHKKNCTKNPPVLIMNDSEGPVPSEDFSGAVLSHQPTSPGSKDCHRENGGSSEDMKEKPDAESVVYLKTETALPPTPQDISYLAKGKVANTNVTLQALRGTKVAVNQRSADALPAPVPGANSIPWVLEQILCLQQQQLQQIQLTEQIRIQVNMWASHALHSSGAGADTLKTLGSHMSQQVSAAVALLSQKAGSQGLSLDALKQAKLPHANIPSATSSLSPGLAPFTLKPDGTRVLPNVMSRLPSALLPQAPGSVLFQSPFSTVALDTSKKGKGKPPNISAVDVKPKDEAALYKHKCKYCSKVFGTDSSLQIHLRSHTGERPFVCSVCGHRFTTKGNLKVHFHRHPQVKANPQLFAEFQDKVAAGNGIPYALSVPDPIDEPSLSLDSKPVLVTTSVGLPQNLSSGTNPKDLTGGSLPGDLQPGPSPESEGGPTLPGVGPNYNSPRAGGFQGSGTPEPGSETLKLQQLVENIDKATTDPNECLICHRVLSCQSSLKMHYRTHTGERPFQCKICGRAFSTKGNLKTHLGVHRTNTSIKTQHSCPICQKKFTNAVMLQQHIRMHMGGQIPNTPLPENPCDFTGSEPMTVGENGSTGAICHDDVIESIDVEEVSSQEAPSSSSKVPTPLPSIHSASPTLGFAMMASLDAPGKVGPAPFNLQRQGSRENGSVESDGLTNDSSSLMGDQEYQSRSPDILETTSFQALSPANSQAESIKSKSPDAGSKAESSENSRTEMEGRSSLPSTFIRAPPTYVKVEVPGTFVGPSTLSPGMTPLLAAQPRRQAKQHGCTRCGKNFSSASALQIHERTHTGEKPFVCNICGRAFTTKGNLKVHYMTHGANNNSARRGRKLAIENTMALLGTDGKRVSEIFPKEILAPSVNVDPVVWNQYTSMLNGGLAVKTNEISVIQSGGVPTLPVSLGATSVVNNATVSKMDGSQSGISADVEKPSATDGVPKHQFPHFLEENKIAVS
Technique: universal PBM
Form: double-stranded DNA, one strand shown
Sample: in vitro
Tested at: 600 nM
Setting: 8-mer, flanks averaged, mean of replicates
Reading: higher = stronger binding
Endpoint: E-score
GGCTTGAC: -0.187
AGCTGCAC: -0.189
CCGATATC: -0.0825
CCTTCGCG: -0.109
CGCGAACG: -0.196
AGAAAAAA: 0.252
AGGGTTTA: 0.117
ATGTCTCC: 0.0474
CAAACGGG: -0.226
ACCTGCCC: -0.303
CACGCCTG: -0.222
CGTCTATC: 0.0543
GAGGCCAC: -0.273
AACCTTAA: 0.155
CGATAGGA: -0.0219
GCTGAATA: 0.23
CGTTAACG: -0.0773
GCGGGAGA: -0.29
TCCTGTAA: 0.171

Set 3
Target: Fragile X messenger ribonucleoprotein 1, C-terminal low-complexity region (Fmr1, Mus musculus, UniProt P35922)
Technique: RNA Bind-n-Seq
Form: RNA
Sample: in vitro
Tested at: 200 nM
Setting: whole 134-nt RNA, ends assumed
Together with: 150 mM LiCl
Baseline: input library
Reading: higher = stronger binding
Endpoint: log2 enrichment
Each molecule: 7-deaza-guanosine replaces G
Shared flanks, not repeated: GGGAGUUCUACAGUCCGACGAUC … UGGAAUUCUCGGGUGUCAAGG
GGAGUGCCGUGAGCAGGCCGCGGGAACGUCGCCGUCACCUUGUCUCGGGGCCUCGGCGCUGCUUCCCGCCAAAACACGUUUACCGCGCGC: -2.08
UGGGAGGUGGAUUUUGUUUAUUUUUUUAGCUCAUUUCCAGGCGUGGGAAUUUUUUUUUAAUAUGUGUCAUGAAUAAAGUUGUUUUUGAAA: -0.988
UAACUUUAGAGGAGGAUCUGAUGGAUAUGGCAGUGGACGUGGAUUUGGGGAUGGUUAUAAUGGGUAUGGAGGAGGACCUGGAGGUGGCAA: 1.38
CACAGACAACACGCACCCACACAGACACAGAGGGAAGGGGUUGGGAUGGGGACAGGGUGCACAGCCGGGCGGGGUAGGACCCCAGCCCCU: -1.45
AGUCCUGUGCUACACAUCGUAUGUACCGAAUCGGUUUUUGGUUUUUGGAAAAAAAGGAAAGUAUUAUGUUACGCCGUUCGGAUCUGCACU: -2.58
UUCUUGCCUAUGCUGUGCGCCACACCAUCCAGGUGUACCGGCUCUCCAAGUACAACACGGAAGAAUUCAUCACAGUCUACCCCACCGACC: 1.94
UCAAGUCCUGUGCUACACAUCGUAUGUACCGAAUCGGGGCGGGGCGGGGCGGGGAAAGUAUUAUGUUACGCCGUUCGGAUCUGCACUUCC: -0.502
AAGUCCUGUGCUACACAUCGUAUGUACCGAAUCGGGGCCCGGGCCCGGGGCCCGGGGAAAGUAUUAUGUUACGCCGUUCGGAUCUGCACU: -2.32
CCUCAAGUCCUGUGCUACACAUCGUAUGUACCGAAUCGGGGUGGGGUGGUGGGAAAGUAUUAUGUUACGCCGUUCGGAUCUGCACUUCCA: -0.836
AAGUCCUGUGCUACACAUCGUAUGUACCGAAUCGGGGAGGGGAGGGGAAAAAGGGGAAAGUAUUAUGUUACGCCGUUCGGAUCUGCACUU: 1.17
CUCAAGUCCUGUGCUACACAUCGUAUGUACCGAAUCGGGGCGGGGCGGGCGGGAAAGUAUUAUGUUACGCCGUUCGGAUCUGCACUUCCA: -0.303

Set 4
Target: Histone acetyltransferase KAT6A, winged helix 1, GST fusion (KAT6A, Homo sapiens, UniProt Q92794, residues 1-85)
Technique: protein binding microarray
Form: double-stranded DNA, one strand shown
Sample: in vitro
Tested at: not given
Setting: 8-mer, flanks averaged, mean of 2 arrays, mostly near background
Baseline: not given
Reading: higher = stronger binding
Endpoint: E-score
Residues (chain): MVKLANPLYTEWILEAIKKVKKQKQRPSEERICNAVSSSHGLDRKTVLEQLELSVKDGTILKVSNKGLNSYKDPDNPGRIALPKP
CCCCGACA: 0.0755
AAACCATC: 0.0359
CACCGACA: 0.0463
GCACCTCA: -0.114
AGAGCTCT: -0.084
AGAACGCA: -0.101
CCCGCTGC: 0.298
CCTCTTGA: -0.245
GTTAAGAA: -0.131
CTCACAAC: -0.121
ATCATAGA: -0.273
CTTGACAA: -0.0843
ACCAGTGC: -0.0249
CTGAGAAG: -0.14
CGGAGTTC: 0.217
CGGAACAG: 0.0491
CTGCTGTC: -0.0226
ACCCTAAT: -0.178
CTCTTATA: 0.0332
CCGTACTC: 0.22
AAAGCGGT: 0.206
CGACAAAG: -0.0995
CGACTGGA: -0.0499
ATGGAGGG: -0.155
GGCGTTGA: 0.137

Set 5
Target: Interferon regulatory factor 7, full length, phosphomimetic (IRF7, Homo sapiens, UniProt Q92985, residues 1-503, S101K/S471D/S472D/S475D/S476D/S477D/S483D/S484D/S487D)
Technique: protein-binding microarray
Form: double-stranded DNA, one strand shown
Sample: in vitro
Tested at: 250 nM
Setting: 60-bp whole probe
Together with: salmon DNA 0.4 mg/ml
Baseline: random background probes
Reading: higher = stronger binding
Endpoint: log fluorescence
Shared flanks, not repeated: GCCTAGCAC … GTCTTGATTCGCTTGACGCTGCTG
Residues (chain): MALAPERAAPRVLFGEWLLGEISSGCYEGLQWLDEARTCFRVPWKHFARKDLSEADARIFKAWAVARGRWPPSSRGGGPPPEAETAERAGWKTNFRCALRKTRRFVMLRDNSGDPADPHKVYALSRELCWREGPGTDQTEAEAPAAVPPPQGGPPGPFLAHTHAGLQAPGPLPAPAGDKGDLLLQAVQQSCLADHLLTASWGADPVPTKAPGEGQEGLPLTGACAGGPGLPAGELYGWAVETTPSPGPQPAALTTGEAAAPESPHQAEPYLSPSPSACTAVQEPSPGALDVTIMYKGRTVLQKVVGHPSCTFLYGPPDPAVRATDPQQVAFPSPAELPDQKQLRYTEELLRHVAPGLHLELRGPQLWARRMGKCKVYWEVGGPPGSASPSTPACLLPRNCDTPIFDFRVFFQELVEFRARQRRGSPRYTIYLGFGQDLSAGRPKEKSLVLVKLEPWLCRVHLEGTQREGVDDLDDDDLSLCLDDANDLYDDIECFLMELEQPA
GGGCATTTGGAAAATGTAAACGTGCTA: -0.412 z-score
TTAGGACTGGACTATCGTTTAGTGCTA: -0.34 z-score
TTAAAACTGGGGTATCGATTAGTGCTA: 0.446 z-score
TTAGGTCTCCTTTTTCTTTAGTGCTAG: 1.09 z-score
GACGGTTTCGGTTCAGGGACGTGCTAG: 13.7 z-score
GACGAACTGGGGATTGGAGACGTGCTA: -0.556 z-score
GCTAGTTCAGTTCTCTAGAAGTGCTAG: -0.0746 z-score
TCCCCTCTAGGTTCTCTGAAAGTGCTA: 0.23 z-score
GAACATACTAGTTTCCATTTGTGCTAG: 8.52 z-score
TTAGATTCCAATTTCGATTAGTGCTAG: 3.09 z-score
TTAGTTATCCTTTTCCTTTAGTGCTAG: 1.56 z-score
GACGATATCAGTATAGAGACGTGCTAG: -0.124 z-score
GATGGTTTCGGTATCGGGACGTGCTAG: 11.4 z-score
TTAGGTATCCATTTCCTTTAGTGCTAG: 1.15 z-score
TTATAACTGGGGTTTCGATTAGTGCTA: 6.17 z-score
AAAGTCTTCACTCTGCTGAAGTGCTAG: -0.107 z-score
AGTGCTATACCACTCTTGCTGTGCTAG: -0.273 z-score
TCATTTTTGGTAATAGTACTGTGCTAG: 0.714 z-score
TGTTATTAAAATTTAATGGGGTGCTAG: 0.458 z-score
GACCGTCTCCTTCTCCTGACGTGCTAG: 0.617 z-score
TGAGGTCTCCTTCTCCTTTAGTGCTAG: -0.16 z-score

For quick reference, copied from above (set 1):
CACCAACAACAAACGUGUUUGAAUUCACCUUACCAAUAUUAAUCCCAGCGUGUGUAAAACAGAACAGUAACUCUAUGUGACCCCAGAUAACAUUUUGUAACAUUGUGCUU: 1.53
UUAAAAUAAAAUUUACUUCCGACGUUUUAAUUACAAAUGUUUGCCACAUUAACUUCUCUGAUGCCUUAAAAGUGGACUUCUUUGAAGAACUUCUGUGCUAUUUUAUCACA: 0.724
CCACUAUUAGGUUUUUUUUCUUUUCCUCUGUGGGGCUAAGACACUUGAUUAAACAGUUUUUCUUGUUGCACAGUCCUAAUUUCAUAAGGUCAAGGAGACACUCAGGCAUU: 0.683
CUGUGGCUGUGAGGUCUCAUAUAGCAUAUUUAUAAAUGUUACUCAGGUUUAAAGUAUUUAAAAUAUAGUUACCUAAUUGUAAAUAGGCUGUUAACCAAAAGAGCUUCCCC: 0.309
UCAGGAGAGUGAGGCACAGUGUCCAUCAUGCCAUUUAAUCUUGUGCCUGCCCUUUCCAGCCUCUUCAAAAGAUGCAUCCAAACAACAGGUCUGCAUUUGAUGUAAUGCCU: 0.477
